Published values of several laboratories.
Values joined by “and” are separate records of one study, mostly repeats; a detail may differ. ± gives the spread as reported.
UniProt O96017, sequence (whole entry, looked up): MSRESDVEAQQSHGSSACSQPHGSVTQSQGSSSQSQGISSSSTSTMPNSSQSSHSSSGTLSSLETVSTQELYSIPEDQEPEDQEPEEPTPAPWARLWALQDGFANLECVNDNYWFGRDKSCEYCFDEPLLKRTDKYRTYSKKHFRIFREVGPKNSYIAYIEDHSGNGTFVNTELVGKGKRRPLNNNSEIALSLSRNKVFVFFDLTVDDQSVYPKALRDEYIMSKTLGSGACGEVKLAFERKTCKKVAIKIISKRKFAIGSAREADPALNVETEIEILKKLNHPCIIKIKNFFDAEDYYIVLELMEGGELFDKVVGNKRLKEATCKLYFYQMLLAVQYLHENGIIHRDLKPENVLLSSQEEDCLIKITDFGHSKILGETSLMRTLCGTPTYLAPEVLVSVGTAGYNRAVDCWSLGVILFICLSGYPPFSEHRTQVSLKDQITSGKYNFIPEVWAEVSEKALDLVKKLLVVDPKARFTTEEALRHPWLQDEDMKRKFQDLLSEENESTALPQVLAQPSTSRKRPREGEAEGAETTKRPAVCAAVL

COc1cc(C(=O)N2CC[C@@H](O)[C@@H](N)C2)cc2nc(-c3cc4cccnc4n3CC3CC3)n(C)c12
inhibition (human neutrophils; protein citrullination, inhibitor, flow cytometry, refers to: citrullinated histone H3; 316 pM, with: ionomycin): 4.58% and 17.5% and 6.52% and 11.1%

CCC(=CCc1c(O)cc2c(c1O)C(=O)CC(c1c(O)cccc1OC)O2)CC (stereo not drawn)
inhibition (HeLa; cell growth or viability, MTT; 100 µM, 48 h): 44.1%

Cc1nn(-c2cccc(N)c2)c(=O)c2cnc(Nc3ccc(N4CCNCC4)cc3)nc12
IC50 (Serine/threonine-protein kinase Chk2 (CHEK2, Homo sapiens, UniProt O96017); enzyme activity, inhibitor): > 10 µM

COC1CN([C@H]2CC[C@H]([C@@]3(C)Oc4c(Cl)cc(C(=O)NCc5c(SC)cc(C)[nH]c5=O)c(C)c4O3)CC2)C1
log2 fold change (RNA-seq, refers to: SEPTIN8; human, whole blood; dose not given, 24 h; baseline: pretreatment baseline): 1.31

CCC(=CCc1c(O)cc2c(c1O)C(=O)CC(c1cc(OC)ccc1O)O2)CC (stereo not drawn)
inhibition (HeLa; cell growth or viability, MTT; 1.563 µM, 48 h): 2.14%

O=C(N/N=C/c1ccc2c(ccc[n+]2Cc2ccccc2)c1)C(=O)N/N=C/c1ccc2c(ccc[n+]2Cc2ccccc2)c1
ΔTm (22CTA telomeric G4-DNA antiparallel; FRET melting; 1 µM, K10 buffer, DNA 0.2 µM, with: ds26 10 µM): 8.4 ± 0.5 °C

C[C@@H]1CC[C@@H]([C@](O)(COCc2ccccc2)Cn2cnc3ccccc32)[C@H](OCc2ccccc2)C1
inhibition (A2780; cell growth or viability, MTT; 10 µM, 72 h): 98.3%

CC12CCCC(NS(=O)(=O)c3cccs3)(C1)C1CC(C)(C)C1CC2 (stereo not drawn)
inhibition (HT-29; cell growth or viability, CCK-8; 50 µM): 96.1%

CCC(=CCc1c(O)cc2c(c1O)C(=O)CC(c1cccc(O)c1OC)O2)CC (stereo not drawn)
inhibition (HeLa; cell growth or viability, MTT; 1.563 µM, 48 h): 0.07%

COc1ccc(COC[C@](O)(CNCc2ccccc2)[C@@H]2CC[C@@H](C)C[C@H]2OCc2ccc(OC)cc2)cc1
inhibition (A2780; cell growth or viability, MTT; 30 µM, 72 h): 101%

N#CCNC(=O)c1ccc(C2CCCCC2)cc1
hepatic clearance (hepatocyte stability; cryopreserved human hepatocytes; 1 µM): 1.08 L/h/kg

CC12CCCC(n3cc(-c4ccccc4)nn3)(C1)C1CC(C)(C)C1CC2 (stereo not drawn)
inhibition (HT-29; cell growth or viability, CCK-8; 50 µM): < 50%

COc1ccc(CNC[C@@](O)(COCc2ccc(F)cc2)[C@@H]2CC[C@@H](C)C[C@H]2OCc2ccc(F)cc2)cc1
inhibition (A2780; cell growth or viability, MTT; 10 µM, 72 h): 95.1%

Nc1ncc(-c2cc(-c3cnn(CC(F)(F)F)c3)ncc2F)nc1C(=O)NC1CNCC(F)C1 (stereo not drawn)
remaining binding (JNK1; KINOMEscan competition binding; 1 µM; baseline: DMSO control): 100%

CC12CCCC(NS(=O)(=O)c3ccc(N)cc3)(C1)C1CC(C)(C)C1CC2 (stereo not drawn)
inhibition (HT-29; cell growth or viability, CCK-8; 50 µM): 98.1%
